Results pooled from the literature.
Organism: Acinetobacter baumannii

SMILES | assay | system | conditions | scale | MIC
CS(=O)(=O)Nc1ncn(-c2cc(F)c(COc3ccc(OS(=O)(=O)F)cc3)c(F)c2)n1 |  |  |  |  | 25 µM
CC[C@H](C)[C@H](NC(=O)[C@H](CCCCN)NC(=O)[C@H](Cc1c[nH]c2ccccc12)NC(=O)[C@H](Cc1c[nH]c2ccccc12)NC(=O)[C@H](CCCCN)NC(=O)[C@H](CCCCN)NC(=O)[C@H](CCCCN)NC(=O)[C@H](Cc1c[nH]c2ccccc12)NC(=O)[C@H](CCCCN)NC(=O)[C@H](CCCCN)NC(=O)[C@H](Cc1c[nH]c2ccccc12)NC(=O)[C@H](CCCCN)NC(=O)[C@H](CCCCN)NC(=O)[C@@H](NC(=O)[C@@H](NC(=O)[C@H](CCCCN)NC(=O)[C@@H](N)CCCNC(=N)N)[C@@H](C)CC)[C@@H](C)CC)C(=O)N[C@@H](Cc1c[nH]c2ccccc12)C(=O)N[C@@H](Cc1c[nH]c2ccccc12)C(=O)N[C@@H](CCCCN)C(=O)NCCOCCOCC(N)=O | broth microdilution | 18 |  |  | 1.9 µg/mL
CC(C)C[C@@H](NC(=O)CNC(=O)[C@@H](CCCCN)NC(=O)[C@@H](CC(C)C)NC(=O)[C@@H](CCCCN)NC(=O)[C@@H](CCCNC(=N)N)NC(=O)[C@@H](CC(C)C)NC(=O)[C@@H](CC(C)C)NC(=O)[C@@H](CCCNC(=N)N)NC(=O)[C@H](N)CCCNC(=N)N)C(=O)N[C@H](CCCCN)C(=O)N[C@H](CCCCN)C(=O)N[C@H](Cc1ccc(O)cc1)C(=O)N[C@H](CC(C)C)C(=O)N[C@H](Cc1ccc(O)cc1)C(=O)N[C@H](Cc1ccccc1)C(=O)N[C@H](CCCCN)C(=O)N[C@H](CC(C)C)C(=O)N[C@H](CCC(N)=O)C(=O)N[C@H](CC(C)C)C(=O)N[C@H](CC(C)C)C(=O)N[C@H](CCCCN)C(=O)N[C@H](CCCCN)C(N)=O |  | KCCM 40203, Mueller-Hinton broth | 24 h |  | 2 µM
CC(C)C[C@H](NC(=O)[C@@H](NC(=O)[C@H](CCCNC(=N)N)NC(=O)[C@H](CCC(N)=O)NC(=O)[C@H](Cc1ccccc1)NC(=O)[C@H](Cc1ccc(O)cc1)NC(=O)[C@H](CC(N)=O)NC(=O)[C@H](Cc1c[nH]c2ccccc12)NC(=O)[C@@H](NC(=O)[C@H](CCCNC(=N)N)NC(=O)[C@H](CCCCN)NC(=O)[C@@H](N)Cc1ccccc1)C(C)C)C(C)C)C(=O)N[C@H](C(=O)N[C@@H](CCCCN)C(=O)N[C@@H](CCCCN)C(=O)N[C@@H](Cc1ccc(O)cc1)C(=O)N[C@@H](C)C(N)=O)C(C)C | broth dilution | ATCC 19606 |  |  | 3.1 µM
C[C@@H](O)[C@H]1C(=O)N2C(C(=O)O)=C(SCCN=CN)C[C@H]12 |  | CCARM 12004 carbapenem-resistant, Mueller-Hinton broth | 16 h, 37 °C |  | 128 µM
CC[C@H](C)[C@H](NC(=O)[C@H](CC(C)C)NC(=O)[C@@H](NC(=O)[C@@H](NC(=O)[C@@H](NC(=O)[C@H](CCCNC(=N)N)NC(=O)[C@H](CCCNC(=N)N)NC(=O)[C@H](CCCNC(=N)N)NC(=O)[C@@H](N)CCCNC(=N)N)C(C)C)[C@@H](C)CC)[C@@H](C)CC)C(=O)N[C@H](C(=O)N[C@@H](CC(C)C)C(=O)N[C@@H](CCCNC(=N)N)C(=O)N[C@@H](CCCNC(=N)N)C(=O)N[C@@H](CCCNC(=N)N)C(=O)N[C@@H](CCCNC(=N)N)C(=O)N[C@@H](Cc1ccccc1)C(=O)N[C@@H](CO)C(=O)N[C@@H](C)C(=O)N[C@@H](Cc1ccc(O)cc1)C(N)=O)C(C)C | broth microdilution | ATCC 17978 | highest value reported |  | 8 µM
CCCC(=O)N[C@@H](CCCCN)C(=O)N[C@@H](CCCCN)C(=O)N[C@@H](C)C(=O)N[C@@H](CC(C)C)C(=O)N[C@@H](CCCCN)C(=O)N[C@@H](CC(C)C)C(=O)N[C@@H](C)C(=O)N[C@@H](CCCCN)C(=O)N[C@@H](CCCCN)C(=O)N1CCC[C@H]1C(=O)N[C@@H](CC(C)C)C(=O)N[C@@H](CCCCN)C(=O)N[C@@H](CC(C)C)C(=O)N[C@@H](CC(C)C)C(=O)N[C@@H](CCCCN)C(N)=O | broth microdilution | ATCC 17978 | 18 h, 37 °C, compound alone |  | > 80 µM
CC[C@H](C)[C@H](NC(=O)[C@H](CC(C)C)NC(=O)[C@H](CCCNC(=N)N)NC(=O)[C@@H](N)CCCNC(=N)N)C(=O)N[C@@H](CCCNC(=N)N)C(=O)N[C@@H](CCCCN)C(=O)N[C@@H](CC(C)C)C(=O)N[C@@H](CCCCN)C(=O)NCC(=O)N1CCC[C@H]1C(=O)N[C@H](C(=O)N[C@H](C(=O)N[C@@H](Cc1ccc(O)cc1)C(=O)N[C@@H](CC(C)C)C(=O)N[C@@H](Cc1ccc(O)cc1)C(=O)N[C@@H](Cc1ccccc1)C(=O)N[C@@H](CCCCN)C(=O)N[C@@H](CC(C)C)C(=O)N[C@@H](CCC(N)=O)C(=O)N[C@@H](CC(C)C)C(=O)N[C@@H](CC(C)C)C(=O)N[C@@H](CCCCN)C(=O)N[C@@H](CCCCN)C(N)=O)[C@@H](C)CC)[C@@H](C)CC |  | KCCM 40203, Mueller-Hinton broth | 24 h |  | 32 µM
CN1C(=O)Cc2ccc(F)c(CCNCC[C@H]3CN(c4ccc5c(n4)NC(=O)CO5)C(=O)O3)c21 |  | ATCC 19606 |  |  | 0.06 µg/mL
CC[C@H](C)[C@H](NC(=O)CNC(=O)[C@H](CC(=O)O)NC(=O)[C@H](CCCNC(=N)N)NC(=O)[C@@H](NC(=O)[C@H](CC(N)=O)NC(=O)[C@H](CCCNC(=N)N)NC(=O)CNC(=O)[C@@H](NC(=O)[C@H](CCCCN)NC(=O)[C@H](CCC(=O)O)NC(=O)[C@@H](NC(=O)[C@H](CCCCN)NC(=O)[C@H](CCCCN)NC(=O)[C@H](Cc1ccccc1)NC(=O)[C@@H](NC(=O)[C@H](CCCCN)NC(=O)[C@H](Cc1c[nH]c2ccccc12)NC(=O)[C@@H](N)CCCNC(=N)N)[C@@H](C)CC)[C@@H](C)CC)C(C)C)C(C)C)C(=O)N[C@H](C(=O)N[C@@H](CCCCN)C(=O)N[C@@H](C)C(=O)NCC(=O)N1CCC[C@H]1C(=O)N[C@@H](C)C(=O)N[C@H](C(=O)N[C@@H](C)C(=O)N[C@H](C(=O)N[C@H](C(=O)NCC(=O)N[C@@H](CCC(N)=O)C(=O)N[C@@H](C)C(=O)N[C@@H](C)C(=O)N[C@H](C(=O)N[C@H](C(=O)N[C@H](C(=O)N[C@@H](CCCCN)C(N)=O)C(C)C)C(C)C)[C@@H](C)O)C(C)C)C(C)C)C(C)C)[C@@H](C)CC |  | KCCM 40203, Mueller-Hinton broth | 16 h, 37 °C | growth inhibition over 99% | 2 µM
CCCCCCCC(=O)N[C@@H](CCN)C(=O)N[C@H](C(=O)N[C@@H](CCN)C(=O)N[C@H]1CCNC(=O)[C@H]([C@@H](C)O)NC(=O)[C@H](CCN)NC(=O)[C@H](CCN)NC(=O)[C@H](Cc2ccccc2)NC(=O)[C@@H](CCc2ccccc2)NC(=O)[C@H](CCN)NC1=O)[C@@H](C)O | broth microdilution | ATCC 19606, colistin-susceptible |  |  | 0.125 to 0.25 µg/mL
CC1(C)S[C@@H]2[C@H](NC(=O)[C@H](N)c3ccccc3)C(=O)N2[C@H]1C(=O)O |  | carbapenem-resistant clinical isolate |  |  | 16 µg/mL
CC[C@H](C)[C@H](NC(=O)[C@H](CC(C)C)NC(=O)[C@H](CCCNC(=N)N)NC(=O)[C@@H](N)CCCNC(=N)N)C(=O)N[C@@H](CCCNC(=N)N)C(=O)N[C@@H](CCCCN)C(=O)N[C@@H](CC(C)C)C(=O)N[C@@H](CCCCN)C(=O)NCC(=O)N1CCC[C@H]1C(=O)N[C@@H](CCCCN)C(=O)N[C@H](C(=O)N[C@@H](Cc1ccc(O)cc1)C(=O)N[C@@H](CC(C)C)C(=O)N[C@@H](Cc1ccc(O)cc1)C(=O)N[C@@H](Cc1ccccc1)C(=O)N[C@@H](CCCCN)C(=O)N[C@@H](CC(C)C)C(=O)N[C@@H](CCC(N)=O)C(=O)N[C@@H](CC(C)C)C(=O)N[C@@H](CC(C)C)C(=O)N[C@@H](CCCCN)C(=O)N[C@@H](CCCCN)C(N)=O)[C@@H](C)CC |  | ATCC BAA1605, Mueller-Hinton broth | 24 h |  | 8 µM
CC[C@H](C)[C@H](NC(=O)CN)C(=O)NCC(=O)N[C@@H](C)C(=O)N[C@H](C(=O)N[C@@H](CC(C)C)C(=O)N[C@@H](CCCCN)C(=O)N[C@H](C(=O)N[C@@H](CC(C)C)C(=O)N[C@H](C(=O)N[C@H](C(=O)NCC(=O)N[C@@H](CC(C)C)C(=O)N1CCC[C@H]1C(=O)N[C@@H](C)C(=O)N[C@@H](CC(C)C)C(=O)N[C@H](C(=O)N[C@@H](CO)C(=O)N[C@@H](Cc1c[nH]c2ccccc12)C(=O)N[C@H](C(=O)N[C@@H](CCCCN)C(=O)N[C@@H](CCCNC(=N)N)C(=O)N[C@@H](CCCCN)C(=O)N[C@@H](CCCNC(=N)N)C(=O)N[C@@H](CCC(N)=O)C(=O)N[C@@H](CCC(N)=O)C(N)=O)[C@@H](C)CC)[C@@H](C)CC)[C@@H](C)O)[C@@H](C)O)C(C)C)C(C)C |  | CCARM 12005 carbapenem-resistant |  |  | 8 µM
CC[C@H](C)[C@H](NC(=O)[C@H](CC(C)C)NC(=O)[C@H](CCCCN)NC(=O)[C@H](CC(C)C)NC(=O)CNC(=O)[C@@H](NC(=O)[C@H](CO)NC(=O)[C@@H](NC(=O)[C@@H](NC(=O)[C@H](CCC(N)=O)NC(=O)[C@H](Cc1c[nH]c2ccccc12)NC(=O)[C@H](CCCNC(=N)N)NC(=O)[C@H](CC(N)=O)NC(=O)[C@H](CCCNC(=N)N)NC(=O)[C@H](CCCNC(=N)N)NC(=O)[C@@H](NC(=O)[C@H](Cc1ccccc1)NC(=O)[C@H](CCCNC(=N)N)NC(=O)CNC(=O)[C@H](C)NC(=O)[C@H](CCCNC(=N)N)NC(=O)[C@H](CCCNC(=N)N)NC(=O)[C@H](CCCCN)NC(=O)[C@H](Cc1ccccc1)NC(=O)[C@H](CCCNC(=N)N)NC(=O)CNC(=O)[C@H](Cc1c[nH]c2ccccc12)NC(=O)[C@H](CCCNC(=N)N)NC(=O)CNC(=O)[C@H](CCCNC(=N)N)NC(=O)[C@@H](N)[C@@H](C)O)[C@@H](C)CC)[C@@H](C)CC)[C@@H](C)CC)[C@@H](C)O)C(=O)NCC(=O)O |  | ATCC 19606 | highest concentration 50 µM |  | 1.2 µM
